Results gathered from unrelated publications.
Protocols differ between the studies behind these lines. ± gives the spread as reported.

With `CSCC[C@H](NC(=O)[C@H](CO)NC(=O)[C@H](Cc1ccc(O)cc1)NC(=O)[C@@H](N)CO)C(=O)N[C@@H](CCC(=O)O)C(=O)N[C@@H](Cc1c[nH]cn1)C(=O)N[C@@H](Cc1ccccc1)C(=O)N[C@@H](CCCNC(=N)N)C(=O)N[C@@H](Cc1c[nH]c2ccccc12)C(=O)NCC(=O)N[C@@H](CCCCN)C(=O)N1CCC[C@H]1C(=O)N[C@H](C(=O)NCC(=O)N[C@@H](CCCCN)C(=O)N[C@@H](CCCCN)C(=O)N[C@@H](CCCNC(=N)N)C(=O)N[C@@H](CCCNC(=N)N)C(=O)N1CCC[C@H]1C(=O)N[C@H](C(=O)N[C@@H](CCCCN)C(=O)N[C@H](C(=O)N[C@@H](Cc1ccc(O)cc1)C(=O)N1CCC[C@H]1C(=O)N[C@@H](CC(=O)O)C(=O)NCC(=O)N[C@@H](C)C(=O)N[C@@H](CCC(=O)O)C(=O)N[C@@H](CC(=O)O)C(=O)N[C@@H](CCC(=O)O)C(=O)N[C@@H](CC(C)C)C(=O)N[C@@H](C)C(=O)N[C@@H](CCC(=O)O)C(=O)N[C@@H](C)C(=O)N[C@@H](Cc1ccccc1)C(=O)N1CCC[C@H]1C(=O)N[C@@H](CC(C)C)C(=O)N[C@@H](CCC(=O)O)C(=O)N[C@@H](Cc1ccccc1)C(=O)O)C(C)C)C(C)C)C(C)C` the Tmax was 1 h (human, plasma; subcutaneous, RCI 80 IU, day 4).
The Tmax of `CC(=CCC(O)C(C)=Cc1csc(C)n1)CC=CC(C)C(O)C(C)C(=O)C(C)(C)C(O)CC(=O)O` (centres unmarked) is reported as 3.34 ± 0.27 h (human, plasma; intravenous infusion, 42 mg/m2 KOS-1584, 3 h infusion, cycle 1).
The Tmax of `CC(C)C[C@@H](NC(=O)[C@@H](Cc1ccccc1)NC(=O)[C@H](N)Cc1ccccc1)C(=O)N[C@H](CCCCN)C(=O)N1CCC(N)(C(=O)O)CC1` is reported as 0.1 h (human, plasma; intravenous, 15 µg/kg).
The Tmax of `CCc1c2c(nc3ccc(OC4OC(C(=O)O)C(O)C(O)C4O)cc13)-c1cc3c(c(=O)n1C2)COC(=O)C3(O)CC` (centres unmarked) is reported as 2 h (human patients, plasma; intravenous, 3 mg/m^2 of parent drug).
`CC(C)C[C@H](NC(=O)[C@H](CCCCN)NC(=O)[C@H](C)NC(=O)[C@@H]1CCCN1C(=O)[C@@H]1CCCN1C(=O)[C@H](CCCCN)NC(=O)[C@H](CCCCN)NC(=O)[C@H](CO)NC(=O)[C@H](CCC(=O)O)NC(=O)[C@H](CCCCN)NC(=O)[C@H](CCCNC(=N)N)NC(=O)[C@H](CCC(N)=O)NC(=O)[C@H](CCC(N)=O)NC(=O)[C@@H](NC(=O)[C@H](CCCNC(=N)N)NC(=O)[C@H](CCC(N)=O)NC(=O)[C@H](Cc1cnc[nH]1)NC(=O)[C@H](CCC(=O)O)NC(=O)[C@@H]1CCCN1C(=O)[C@H](CO)NC(=O)[C@H](CC(C)C)NC(=O)[C@H](Cc1ccccc1)NC(=O)[C@H](CO)NC(=O)[C@H](CO)NC(=O)CN)C(C)C)C(=O)N[C@@H](CCC(N)=O)C(=O)N1CCC[C@H]1C(=O)N[C@@H](CCCNC(=N)N)C(=O)O` gave a Tmax of 2.83 ± 0.817 h (ELISA; healthy humans, both sexes, plasma; intravenous bolus then infusion, 1.1 µg/kg bolus then 4 µg/kg/h, 210 min).
With `CC1(C)C(=O)N(c2ccc(C#N)c(C(F)(F)F)c2)C(=S)N1c1ccc(C(N)=O)c(F)c1` the Tmax (median) was 240 h (human, male, plasma; oral, 160 mg, single dose, after high-fat meal).
With `CCCCCCCC(=O)OC[C@H](NC(=O)[C@H](CO)NC(=O)CN)C(=O)N[C@@H](Cc1ccccc1)C(=O)N[C@@H](CC(C)C)C(=O)N[C@@H](CO)C(=O)N1CCC[C@H]1C(=O)N[C@@H](CCC(=O)O)C(=O)N[C@@H](Cc1cnc[nH]1)C(=O)N[C@@H](CCC(N)=O)C(=O)N[C@@H](CCCNC(=N)N)C(=O)N[C@H](C(=O)N[C@@H](CCC(N)=O)C(=O)N[C@@H](CCC(N)=O)C(=O)N[C@@H](CCCNC(=N)N)C(=O)N[C@@H](CCCCN)C(=O)N[C@@H](CCC(=O)O)C(=O)N[C@@H](CO)C(=O)N[C@@H](CCCCN)C(=O)N[C@@H](CCCCN)C(=O)N1CCC[C@H]1C(=O)N1CCC[C@H]1C(=O)N[C@@H](C)C(=O)N[C@@H](CCCCN)C(=O)N[C@@H](CC(C)C)C(=O)N[C@@H](CCC(N)=O)C(=O)N1CCC[C@H]1C(=O)N[C@@H](CCCNC(=N)N)C(=O)O)C(C)C` the Tmax was 1.82 ± 1.23 h (two-site ELISA, measured: DAG; human, plasma; intravenous infusion, 1 µg/kg/h, 210 min).
`CC[C@H](C)C(=O)N1CCC(NC(=O)Nc2ccc(OC(F)(F)F)c(F)c2)CC1` gave a Tmax of 1.25 h (human; oral, single ascending dose, median).

Excerpt of the above:
The Tmax of `CCc1c2c(nc3ccc(OC4OC(C(=O)O)C(O)C(O)C4O)cc13)-c1cc3c(c(=O)n1C2)COC(=O)C3(O)CC` (centres unmarked) is reported as 2 h (human patients, plasma; intravenous, 3 mg/m^2 of parent drug).
